Assay results of several laboratories.
Every numbered part comes from another study and shows a few of its results, in no order.

Study 1
Target: Interferon regulatory factor 7, full length, phosphomimetic (IRF7, Homo sapiens, UniProt Q92985, residues 1-503, S101K/S471D/S472D/S475D/S476D/S477D/S483D/S484D/S487D)
Chain of UniProt Q92985 (whole entry, unmodified, looked up): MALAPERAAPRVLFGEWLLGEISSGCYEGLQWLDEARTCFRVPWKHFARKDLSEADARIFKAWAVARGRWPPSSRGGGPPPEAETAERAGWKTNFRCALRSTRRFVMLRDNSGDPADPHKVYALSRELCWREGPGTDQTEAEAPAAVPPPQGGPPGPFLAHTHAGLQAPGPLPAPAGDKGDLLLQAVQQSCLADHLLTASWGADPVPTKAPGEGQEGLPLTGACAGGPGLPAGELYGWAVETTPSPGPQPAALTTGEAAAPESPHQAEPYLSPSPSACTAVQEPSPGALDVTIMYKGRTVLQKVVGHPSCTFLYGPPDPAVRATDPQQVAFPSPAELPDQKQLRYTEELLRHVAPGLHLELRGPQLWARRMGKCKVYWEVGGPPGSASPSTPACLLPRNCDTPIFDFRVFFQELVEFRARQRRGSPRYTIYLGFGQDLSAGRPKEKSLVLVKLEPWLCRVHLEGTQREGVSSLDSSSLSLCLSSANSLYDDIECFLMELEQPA
Method: protein-binding microarray
Molecule type: double-stranded DNA, one strand shown
Sample: in vitro
Tested at: 250 nM
Notes: 60-bp whole probe
Added: salmon DNA 0.4 mg/ml
Baseline: random background probes
Direction: higher = stronger binding
Shared flanks, not repeated: GCCTAGCAC … GTCTTGATTCGCTTGACGCTGCTG
For `GTCGGACTGGACTTTCGGGACGTGCTA`, the log fluorescence was -0.24 z-score.
`TTAGATTTCGGGTATCGCTTAGTGCTA` has a log fluorescence of 1.39 z-score.
The log fluorescence of `TTCGAATTCAGAATGGGAGAGTGCTAG` is reported as 0.0666 z-score.
With `TTTTTTTTATTTATAAATTAGTGCTAG` the log fluorescence was 1.22 z-score.
`GACGAACTGGGGGCTGGAGACGTGCTA` gave a log fluorescence of 0.234 z-score.

Study 2
Target: PABPC1L2, full length, GST fusion (mouse, UniProt A0ABA7IW68)
Method: RNAcompete
Molecule type: RNA
Sample: in vitro
Tested at: 20 nM
Notes: 7-mer, probes averaged, single round
Baseline: mean of 7-mers
Direction: higher = stronger binding
Residues (chain): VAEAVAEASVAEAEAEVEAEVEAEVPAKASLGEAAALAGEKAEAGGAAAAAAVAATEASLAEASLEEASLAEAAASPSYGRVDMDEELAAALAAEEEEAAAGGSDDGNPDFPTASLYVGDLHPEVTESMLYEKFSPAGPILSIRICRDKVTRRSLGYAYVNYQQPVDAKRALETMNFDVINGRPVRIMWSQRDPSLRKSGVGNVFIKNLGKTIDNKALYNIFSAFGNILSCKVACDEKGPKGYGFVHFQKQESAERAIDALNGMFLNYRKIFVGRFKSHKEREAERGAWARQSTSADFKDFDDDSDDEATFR
With `CAGGAUU` the 7-mer Z-score was -0.0047.
`GGUGGCA` has a 7-mer Z-score of 0.392.
`GACAUCC` has a 7-mer Z-score of -0.204.
`ACUUGAU` has a 7-mer Z-score of 0.0732.
`AAAAAUU` has a 7-mer Z-score of 16.1.

Study 3
Target: Histone acetyltransferase KAT6A, winged helix 1, GST fusion (KAT6A, Homo sapiens, UniProt Q92794, residues 1-85)
Method: protein binding microarray
Molecule type: double-stranded DNA, one strand shown
Sample: in vitro
Tested at: not given
Notes: 8-mer, flanks averaged, mean of 2 arrays, mostly near background
Baseline: not given
Direction: higher = stronger binding
Residues (chain): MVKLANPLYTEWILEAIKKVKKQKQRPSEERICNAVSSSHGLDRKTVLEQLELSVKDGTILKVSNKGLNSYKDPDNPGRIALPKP
`CAAAAAAG` has an E-score of -0.104.
`CGCTGATC` has an E-score of 0.301.
With `GAAGCCGA` the E-score was 0.194.
`ATTGGGAC` gave an E-score of -0.261.
The E-score of `AAATCTAG` is reported as -0.0715.

Mixed results
`PhoQ, residues 284 288 289 292 302 303 SVHLDV` gave a fold induction of 10.2 (PhoP, residues 12 14 15 18 19 TQALL (Escherichia coli, UniProt P23836); Sort-seq, item: YFP reporter; E. coli; PhoQ-PhoP variant library, added: 10 µM Mg2+; baseline: high Mg2+ state, higher = stronger signaling).

Repeated from above (study 3):
`CGCTGATC` has an E-score of 0.301.
